# Published values collected from several papers.
# Numbered parts are unrelated; each lists some results of a single study. Substitutions count along the parent as printed.

# Sample 1
# Target: CCNA1, cyclin fold, Cln2 fusion (human)
# Technique: yeast growth competition, sequencing
# Medium: yeast
# Setting: weak parent motif
# Reference: not given
# Reading: higher = stronger binding
# Starting sequence: PKN2 docking peptide (human); VSAVQKLDFSDTM; partner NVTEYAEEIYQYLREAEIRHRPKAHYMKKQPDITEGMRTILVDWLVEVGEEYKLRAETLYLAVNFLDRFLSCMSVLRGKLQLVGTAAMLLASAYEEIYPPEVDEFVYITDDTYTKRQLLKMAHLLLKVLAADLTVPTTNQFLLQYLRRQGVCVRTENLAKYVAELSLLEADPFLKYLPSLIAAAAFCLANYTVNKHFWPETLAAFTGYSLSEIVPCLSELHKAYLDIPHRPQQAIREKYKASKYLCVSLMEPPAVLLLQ
Change,normalised enrichment score
VSADQKLDFSDTM [V4D],0.213
VSAVQKLDFSATM [D11A],0.268
VSRVQKLDFSDTM [A3R],0.162
VSAVQKLDFWDTM [S10W],0.129
VSAVQKLDFSWTM [D11W],0.357
VSAVQKTDFSDTM [L7T],0.0138
VSAWQKLDFSDTM [V4W],0.0918
VSAVQKLQFSDTM [D8Q],0.185
VSMVQKLDFSDTM [A3M],0.185
VSAVQKPDFSDTM [L7P],0.0931
VSAVQKLDFSDMM [T12M],0.0735
VSTVQKLDFSDTM [A3T],0.12
VSAVQKLDFSDTP [M13P],-0.0826
VSAVQKLDCSDTM [F9C],0.156
VSAVQKLDFSDTG [M13G],0.303
VSAVQKLDNSDTM [F9N],0.312
LSAVQKLDFSDTM [V1L],0.269
VPAVQKLDFSDTM [S2P],0.145
VSAPQKLDFSDTM [V4P],-0.051

# Sample 2
# Target: Centromere-binding protein 1, full length, N-terminal tag (CBF1, Saccharomyces cerevisiae, UniProt P17106, residues 1-351)
# Chain of UniProt P17106 (whole entry, looked up): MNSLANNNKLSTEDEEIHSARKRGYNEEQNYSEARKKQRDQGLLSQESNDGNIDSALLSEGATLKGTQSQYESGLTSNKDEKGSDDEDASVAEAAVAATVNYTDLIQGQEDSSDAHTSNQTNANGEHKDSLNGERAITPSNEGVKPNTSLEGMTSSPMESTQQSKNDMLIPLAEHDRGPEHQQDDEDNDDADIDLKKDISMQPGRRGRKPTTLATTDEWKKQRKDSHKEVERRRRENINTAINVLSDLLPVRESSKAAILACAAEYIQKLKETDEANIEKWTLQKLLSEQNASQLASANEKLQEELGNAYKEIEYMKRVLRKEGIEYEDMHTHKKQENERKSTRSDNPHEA
# Technique: protein-binding microarray
# Molecule type: double-stranded DNA, one strand shown
# Medium: in vitro
# Tested at: 0.8 µM
# Setting: whole 60-bp probe, no competitor
# Reading: higher = stronger binding
# Shared flanks, not repeated: … GTCTTGATTCGCTTGACGCTGCTG
Oligonucleotide,fluorescence intensity [a.u.]
CTACAGCCGTACATACACGTGCCATTTATCTTGTTC,7400
CTACTGCGTTAGCGTCACCTAGAAATCCCACTTTTC,561
CTATAGTATATACGTCACGAATACAGGAACACCTTC,607
CCTAACTACTATAATTTCACCTGATAGCTTCGTACA,602
CTAATCCACTATAATCAGCTGTTATGACTTAGCTTC,593
CTAGTAATAAAAAAATTCATGATGCTATGTCCATTC,515
CTATGTATTTCCTTTCACGTGATGCGCTGGGATTTC,14600
GAATGCTGTATTATTATCGTGATTTCTCGATTATAG,525
CTAAAAGAGCACCCTCATGATTTCTTGCTCTGCTTC,509
CCTAACTACTATAGGCACGTGGCATAGCTTCGTACA,9190
GAACCTACATTTCCTCTGATGACTGTGATCCTTTAG,555
CTAGTTATTCTGTGTGTCATGACTCTCACTTCGTTC,576
CTACCGCACACGTGTCACGTGATAAGCACTCTTTTC,36500
CTATTTTCGTTATCGCGTGGCACGATATCATGCTTC,989

# Sample 3
# Target: Interferon regulatory factor 5, full length, phosphomimetic (IRF5, Homo sapiens, UniProt Q13568-2, residues 1-514, S451D/S453D/S456D/S462D)
# Technique: protein-binding microarray
# Molecule type: double-stranded DNA, one strand shown
# Medium: in vitro
# Tested at: 940 nM top
# Setting: 60-bp whole probe
# With: salmon DNA 0.4 mg/ml
# Reference: random background probes
# Reading: higher = stronger binding
# Shared flanks, not repeated: GCCTAGCAC … GTCTTGATTCGCTTGACGCTGCTG
Oligonucleotide,fitted relative affinity [z-score]
GACGGTGTCCTTTTCCTGACGTGCTAG,0.305
TTAGGTTTCCGTCTCCTTTAGTGCTAG,3.02
GACGGACGGCTACTGCTGACGTGCTAG,-0.933
TTAGGAGTGCTACTGCTTTAGTGCTAG,-0.598
GACGGACTGGGAACTGGGGACGTGCTA,-0.565
TTAGGTCTCCGTATCGGTTAGTGCTAG,2.05
GACGATCTCCGACTGGAGACGTGCTAG,-0.565
CTTCCTCTTTCTCTGCTACCGTGCTAG,2.16
TCATGTTTCCTCTTTCAACTGTGCTAG,1.4
TCAGCTATTTTATATGCTACTGTGCTA,-0.0363
GACGGTTCCCTTATCCTGACGTGCTAG,0.465
GACGACCTGGGGTTTCGAGACGTGCTA,2
TTAGGTTTTGGGTTTCGGTTAGTGCTA,7.47

# Other studies, line by line
Substance,target,assay,test system,conditions,how to read,endpoint,result
"PhoQ, residues 284 288 289 292 302 303 ALVSVA","PhoP, residues 12 14 15 18 19 LHSVW (Escherichia coli, UniProt P23836)","Sort-seq, measured: YFP reporter",E. coli,"PhoQ-PhoP variant library, with: 10 µM Mg2+","reference: high Mg2+ state, higher = stronger signaling",fold induction,3.88

# A few entries again (sample 3):
Oligonucleotide,fitted relative affinity [z-score]
TTAGGTTTTGGGTTTCGGTTAGTGCTA,7.47
TTAGGTCTCCGTATCGGTTAGTGCTAG,2.05
TTAGGAGTGCTACTGCTTTAGTGCTAG,-0.598
GACGATCTCCGACTGGAGACGTGCTAG,-0.565
TCAGCTATTTTATATGCTACTGTGCTA,-0.0363
CTTCCTCTTTCTCTGCTACCGTGCTAG,2.16
